Measurements gathered from unrelated publications.
Each numbered part is a random draw from the data of one study; scales do not carry over between parts.

Series 1
Target: RNA binding protein fox-1 homolog 2, RRM domain, GST-SBP tag (RBFOX2, Homo sapiens, UniProt O43251-10, residues 100-194)
Method: RNA Bind-n-Seq
Form: RNA
Sample: in vitro
Tested at: 365 nM
Setting: natural RNA segment, single round, ends assumed
Reference: no-protein control
Reading: higher = stronger binding
Residues (chain): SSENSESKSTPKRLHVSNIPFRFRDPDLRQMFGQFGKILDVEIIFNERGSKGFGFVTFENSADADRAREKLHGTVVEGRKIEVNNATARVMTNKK
Strand | RBNS enrichment (R)
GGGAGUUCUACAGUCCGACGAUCGUCUACUAUGUGCCAGGUUCUGGGGAAGCAGGCAGGGUACAGUCACUUUUGGCCAAGGGUCUUGGGUAACAUCCUGGGUUGAAGUUGCCAAGCUUCAUCUUACUGAAAAAUGGAAUUCUCGGGUGCCAA | 0.598
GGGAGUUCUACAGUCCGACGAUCGCAGGGUAAGGGUGGGCACAUUUAGGCCUCUUCUCCUCACACUGGCCCUGCCAUCAGCUUUUGGGGCCUCAGCAAGGCCUCUCUUUCUCCCCGUUGGUGAUGAAAGGCCUUGGAAUUCUCGGGUGCCAA | 0.483
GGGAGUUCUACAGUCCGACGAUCUCGAUCCGGACCAGGACAUGGAACCGUACUUGCCACCAGUUUAGUGGCUCUUCCAGCCUGCAGGGACAGUAAAGGAAGCCAUGGACACUGGCCCCAAGAACUGAUAAGACUGGAAUUCUCGGGUGCCAA | 0.479
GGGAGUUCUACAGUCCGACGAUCCUUUUCCGGUGCCGUGGUUGGAGUGGGAGCCCACGCCUCGGGAGCUCUGGCCUUGCUCUUUCAAGUCUUGUUUGAAAAAUAAUCCAGUCAGCUGACUUCCAGUACUGUGAUGGAAUUCUCGGGUGCCAA | 0.875
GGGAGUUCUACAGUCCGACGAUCUUGGGGGCGCCGGCUAGAAAAAGUAGGGUGCGGUGGCCAGGAGGGCCCCUGCCGCGCGGGGGGCUGGGUCUGGUUGAGUCGCUGCUUUCCCGAGGGCAGCGCAGGGAUCCUGGAAUUCUCGGGUGCCAA | 0.412
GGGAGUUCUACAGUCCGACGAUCUGAGGACUGAACUGACCAGAUAGCGGCCCCAUCACCCCUACUGCUCCUUGGACCCCUUGGCCCAACCUGUCUGCCUGCACCAGCGUCAGGCCCCACCAUCGGGACAUCACUGGAAUUCUCGGGUGCCAA | 1.78
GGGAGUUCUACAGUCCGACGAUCGCAUUUUGGGAGGCUGAGGCAGGUGGAUCACUUGAGAUCAAGAGCUUAAAACCAGCCCAGGCAACAUGGCAAAACCCCGUCUCUACAAAAAAAUACAAAAACUAGCUGGGUGGAAUUCUCGGGUGCCAA | 1.02
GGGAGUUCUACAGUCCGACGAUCCUGGAGGCCAGACUGGGCUGUAGUUAGCUUUUCAUCCCUAAAGAAGGCUCCUUUCCCUAAGGAACCAUAGAAGAGAGGAAGAAAACAAAGGGCAUGUGUGAGGGAAGCUGUGGAAUUCUCGGGUGCCAA | 1.81
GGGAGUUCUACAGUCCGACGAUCAGCGAGUAUUCAGAUCAUACGAGGAGGCGUUCCUCGGUGCAUGACGGUCAGAUGGCCAUUUAUCAGCAUAUUUAUUUGUAUUUUCUCAGCAGAUAGUAAGGUACAACUGUUGGAAUUCUCGGGUGCCAA | 0.841
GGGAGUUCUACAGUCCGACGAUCGUAGCUCCUACCAGCCUCCAAUUCUCUAUGUAGCUGAAGAUGACCUUGACUACCUGAGUUUCCUGUCUCUACUUCUUUUCAGCUUCUGGGACCACAGGCCUGUACCACCAUGGAAUUCUCGGGUGCCAA | 0.342
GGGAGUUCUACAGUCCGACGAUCUGCACGCACUGCGUAGAGCCUGGAAGGGAAGUGAGAAACCAGCCGACCGGCCCUGCCCCUCUUCCCGGGAUCACUUAAUGAACCACGUGUUUUGACAUCAUGUAAACCUAUGGAAUUCUCGGGUGCCAA | 0.272
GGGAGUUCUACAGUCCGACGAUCGUUGGCUUUUAUUUGGAUUUUUUCAUCUCAGUUUUUUCUGUGGAAUCUCCUUCAUUGGCAUUGUUAUUUAAUCAUAAACGGGGCAGAUGUCUACUUGUUCAGUUUUUCAAUGGAAUUCUCGGGUGCCAA | 0.41

Series 2
Target: Prothrombin, mature alpha-thrombin (F2, Homo sapiens, UniProt P00734)
Method: aptamer microarray, sandwich
Form: DNA with 2'F-ANA
Sample: in vitro
Tested at: 200 nM
Setting: whole 15-mer aptamer, many near background
With: Cy3 exosite-II aptamer, 400 nM
Reading: higher = stronger binding
Strand: GGTTGGTGTGGTTGG
Modification | mean fluorescence intensity [a.u.]
2'F-ANA at 3 4 10 11 13 | 253
2'F-ANA at 1 2 4 12 | 340
2'F-ANA at 1 3 4 5 6 7 8 9 11 12 14 15 | 51.5
2'F-ANA at 3 5 7 8 12 13 | 374
2'F-ANA at 1 2 3 5 6 7 9 12 13 | 76.1
2'F-ANA at 5 6 8 10 11 12 13 14 15 | 49.6
2'F-ANA at 2 4 6 7 14 15 | 101
2'F-ANA at 1 4 5 9 10 12 14 | 43.4
2'F-ANA at 1 4 6 7 8 9 10 11 12 | 55.6
2'F-ANA at 1 3 11 12 14 15 | 118
2'F-ANA at 2 4 5 6 7 8 11 13 14 | 45.9
2'F-ANA at 1 2 5 8 11 12 13 15 | 72.2
2'F-ANA at 1 4 5 6 7 12 13 14 15 | 49.1
2'F-ANA at 2 3 4 10 12 13 | 285
2'F-ANA at 1 3 5 9 12 14 15 | 62.9
2'F-ANA at 2 3 4 9 10 12 14 15 | 185
2'F-ANA at 1 5 6 7 8 9 10 14 | 68.5
2'F-ANA at 8 9 13 14 15 | 149
2'F-ANA at 1 7 8 10 11 13 | 56.1
2'F-ANA at 8 14 | 227
2'F-ANA at 1 2 3 4 5 8 9 10 11 12 15 | 209
2'F-ANA at 3 4 7 10 12 13 14 15 | 225
2'F-ANA at 3 5 7 9 10 11 12 13 | 65.6
2'F-ANA at 1 2 5 6 10 13 15 | 50
2'F-ANA at 1 5 6 9 13 14 | 44.6

Series 3
Target: Sal-like protein 4, full length isoform A (SALL4, Homo sapiens, UniProt Q9UJQ4, residues 1-1053)
Sequence of UniProt Q9UJQ4 (whole entry, looked up): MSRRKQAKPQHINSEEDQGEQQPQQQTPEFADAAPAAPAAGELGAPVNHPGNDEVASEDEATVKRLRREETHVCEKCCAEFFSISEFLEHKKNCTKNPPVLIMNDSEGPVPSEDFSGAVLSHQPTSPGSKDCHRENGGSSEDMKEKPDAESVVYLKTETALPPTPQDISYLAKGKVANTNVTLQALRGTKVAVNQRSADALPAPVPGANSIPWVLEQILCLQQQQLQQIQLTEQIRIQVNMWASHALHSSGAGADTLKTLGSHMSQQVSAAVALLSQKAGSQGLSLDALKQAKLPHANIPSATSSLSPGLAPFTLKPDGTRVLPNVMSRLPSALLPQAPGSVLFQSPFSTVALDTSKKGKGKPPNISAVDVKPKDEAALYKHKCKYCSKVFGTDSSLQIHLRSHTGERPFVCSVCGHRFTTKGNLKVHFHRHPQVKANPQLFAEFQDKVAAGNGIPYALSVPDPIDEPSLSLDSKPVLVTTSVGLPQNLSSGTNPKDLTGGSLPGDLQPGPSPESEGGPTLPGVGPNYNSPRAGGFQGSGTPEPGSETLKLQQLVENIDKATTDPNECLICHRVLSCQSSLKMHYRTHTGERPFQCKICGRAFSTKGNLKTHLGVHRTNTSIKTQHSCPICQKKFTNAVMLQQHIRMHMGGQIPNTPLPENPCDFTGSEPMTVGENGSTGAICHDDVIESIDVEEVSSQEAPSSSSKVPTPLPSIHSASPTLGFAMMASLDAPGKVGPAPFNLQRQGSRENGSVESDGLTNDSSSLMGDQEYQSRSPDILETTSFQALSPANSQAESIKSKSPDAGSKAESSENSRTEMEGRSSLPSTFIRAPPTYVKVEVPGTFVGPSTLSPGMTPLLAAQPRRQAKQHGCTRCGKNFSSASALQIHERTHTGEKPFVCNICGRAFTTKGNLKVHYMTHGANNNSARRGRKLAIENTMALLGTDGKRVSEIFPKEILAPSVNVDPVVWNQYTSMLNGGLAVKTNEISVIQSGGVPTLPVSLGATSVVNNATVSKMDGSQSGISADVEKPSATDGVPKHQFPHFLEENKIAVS
Method: universal PBM
Form: double-stranded DNA, one strand shown
Sample: in vitro
Tested at: 600 nM
Setting: 8-mer, flanks averaged, mean of replicates
Reading: higher = stronger binding
Strand | E-score
CCAGCATC | -0.303
TATGTAGA | 0.181
TGGGTACA | -0.05
TGAAAGCA | 0.216
CGCATCAA | 0.0637
GGAGAGAC | -0.00996
AGCCTCAT | 0.0257
AAATAAGG | 0.151
AATTTCAC | 0.26
GTATGTTA | 0.257
CGGTCACA | -0.155
GTGCGTAA | -0.0827
GAACTTAA | 0.0122
GAGCCTGC | -0.219
GAACCTAC | -0.064
ACGGTAGG | -0.13
CGCCTGCC | -0.284
CGAAGGCG | -0.171
GGGCACCA | -0.274
ACAGGGTC | -0.263
AGTGGATG | -0.185
ATATTCCA | 0.368
CATTTACC | 0.208
AGTCTTGC | 0.0527
CCCAGCAG | -0.185

Series 4
Target: Histone acetyltransferase KAT6A, both winged helices, GST fusion (KAT6A, Homo sapiens, UniProt Q92794, residues 1-181)
Method: protein binding microarray
Form: double-stranded DNA, one strand shown
Sample: in vitro
Tested at: not given
Setting: 8-mer, flanks averaged, mean of 2 arrays, mostly near background
Reference: not given
Reading: higher = stronger binding
Target sequence (chain): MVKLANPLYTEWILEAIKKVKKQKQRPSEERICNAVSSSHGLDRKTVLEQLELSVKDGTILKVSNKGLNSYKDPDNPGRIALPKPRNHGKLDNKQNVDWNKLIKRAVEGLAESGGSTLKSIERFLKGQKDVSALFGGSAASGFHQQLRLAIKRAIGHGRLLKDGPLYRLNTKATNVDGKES
Strand | E-score
CCGCCACG | 0.209
ACACCAAC | -0.0606
CAGCTAGA | -0.208
AATCGCGC | 0.284
AGCTCACG | 0.0345
GTGTGGCA | -0.144
TGTAAACA | -0.114
ATCGGACG | 0.0896
ATACCAAC | -0.0149
TCCCTGCA | -0.159
TGCGGTAA | 0.209
ATACTCGG | 0.0891
ATGAAATC | 0.0243
GATCTTTA | 0.0123
ACCCGAAC | 0.143
ATGAGAGC | -0.161

Series 5
Target: Interferon regulatory factor 7, full length, phosphomimetic (IRF7, Homo sapiens, UniProt Q92985, residues 1-503, S101K/S471D/S472D/S475D/S476D/S477D/S483D/S484D/S487D)
Method: protein-binding microarray
Form: double-stranded DNA, one strand shown
Sample: in vitro
Tested at: 250 nM
Setting: 60-bp whole probe
With: salmon DNA 0.4 mg/ml
Reference: random background probes
Reading: higher = stronger binding
Shared flanks, not repeated: GCCTAGCAC … GTCTTGATTCGCTTGACGCTGCTG
Target sequence (chain): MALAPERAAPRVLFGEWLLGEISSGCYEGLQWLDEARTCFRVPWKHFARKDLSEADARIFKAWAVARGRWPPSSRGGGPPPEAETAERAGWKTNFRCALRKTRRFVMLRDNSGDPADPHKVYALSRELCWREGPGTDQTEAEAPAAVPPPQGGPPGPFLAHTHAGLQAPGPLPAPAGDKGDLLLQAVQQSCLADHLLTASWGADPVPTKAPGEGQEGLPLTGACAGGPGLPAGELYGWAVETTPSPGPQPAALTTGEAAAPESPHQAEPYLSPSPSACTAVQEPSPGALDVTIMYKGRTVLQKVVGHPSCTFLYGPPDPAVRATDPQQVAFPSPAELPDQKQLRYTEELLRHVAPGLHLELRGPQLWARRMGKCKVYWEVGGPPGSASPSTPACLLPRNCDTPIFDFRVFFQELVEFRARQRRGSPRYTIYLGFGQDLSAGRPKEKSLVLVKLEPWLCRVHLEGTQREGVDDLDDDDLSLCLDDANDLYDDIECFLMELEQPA
Strand | log fluorescence [z-score]
GACGGTTTCGGGTATCGTGACGTGCTA | 6.89
TTAGATTTTAGTTTCGATTAGTGCTAG | 9.86
TTACGACTGCTTATCCTTTAGTGCTAG | -0.243
GACGAACTGAGTTTCGAGAGGTGCTAG | 1.68
CTCCATGAACAGGGCTGATGGTGCTAG | -0.187
GAAGAACTGGGGTATCGAGACGTGCTA | -0.444
TCAACTTTCTATCTCTGACTGTGCTAG | 1.01
TCATTGTTCTCTCTGGCACTGTGCTAG | 0.477
GACGATTTCGAGACTGGAGACGTGCTA | 0.568
TTAGGTATCGGTCTCAGTTAGTGCTAG | 1.1
GACGGTATCGGGTATCGGTACGTGCTA | 0.517
TCAGCCATATTTATCTGACTGTGCTAG | -0.258
GACGGTATCCTTATCTTGACGTGCTAG | -0.0185
GACCATCTCAGTTTCGAGACGTGCTAG | 4.12
GACGGACTGGGTTTCTGGACGTGCTAG | -0.0259
GACGGTATCGGTATCGGGTCGTGCTAG | 2.08
TTAGATATCGACACTGGGTTAGTGCTA | -0.351
TTAGGTCTCGGTAGCGGTTAGTGCTAG | 0.143
GACGATCTCGGGTTTCGAGACGTGCTA | 2.76
GACGAACTGAGGCTGGAGACGTGCTAG | -0.682

Repeated from above (series 2):
Modification | mean fluorescence intensity [a.u.]
2'F-ANA at 1 3 4 5 6 7 8 9 11 12 14 15 | 51.5
2'F-ANA at 1 2 5 6 10 13 15 | 50
2'F-ANA at 1 2 3 4 5 8 9 10 11 12 15 | 209
2'F-ANA at 3 5 7 9 10 11 12 13 | 65.6
2'F-ANA at 2 3 4 10 12 13 | 285
2'F-ANA at 2 4 6 7 14 15 | 101
2'F-ANA at 1 2 3 5 6 7 9 12 13 | 76.1
2'F-ANA at 3 5 7 8 12 13 | 374
2'F-ANA at 1 3 5 9 12 14 15 | 62.9
2'F-ANA at 1 4 5 6 7 12 13 14 15 | 49.1
2'F-ANA at 8 9 13 14 15 | 149
